# Results from different studies.
# A part holds a random share of what one study measured.

# Sample 1
# Target: Interferon regulatory factor 7, full length, phosphomimetic (IRF7, Homo sapiens, UniProt Q92985, residues 1-503, S471D/S472D/S475D/S476D/S477D/S483D/S484D/S487D)
# UniProt Q92985, sequence (whole entry, unmodified, looked up): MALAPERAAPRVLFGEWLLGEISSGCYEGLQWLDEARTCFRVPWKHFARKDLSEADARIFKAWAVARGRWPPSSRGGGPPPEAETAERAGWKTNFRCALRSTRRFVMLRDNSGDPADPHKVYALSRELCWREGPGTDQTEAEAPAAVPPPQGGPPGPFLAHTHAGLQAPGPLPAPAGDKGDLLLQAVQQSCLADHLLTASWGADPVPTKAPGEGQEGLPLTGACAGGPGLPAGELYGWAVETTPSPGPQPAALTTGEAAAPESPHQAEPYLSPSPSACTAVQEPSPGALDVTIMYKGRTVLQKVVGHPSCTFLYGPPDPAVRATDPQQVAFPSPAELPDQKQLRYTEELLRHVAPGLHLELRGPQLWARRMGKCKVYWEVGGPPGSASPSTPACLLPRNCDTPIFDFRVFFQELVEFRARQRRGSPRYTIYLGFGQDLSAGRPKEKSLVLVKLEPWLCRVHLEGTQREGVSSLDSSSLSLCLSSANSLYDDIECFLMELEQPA
# Method: protein-binding microarray
# Form: double-stranded DNA, one strand shown
# Matrix: in vitro
# Tested at: 2200 nM top
# Notes: 60-bp whole probe
# With: salmon DNA 0.4 mg/ml
# Baseline: random background probes
# Direction: higher = stronger binding
# Shared flanks, not repeated: GCCTAGCAC … GTCTTGATTCGCTTGACGCTGCTG
Oligonucleotide,fitted relative affinity
GACGAACTAAGTATCGAGACGTGCTAG,-0.236 z-score
TCATAAACTAGAAACTGAACTGTGCTA,-0.703 z-score
AGACAGAAGGGAAACAGGTTGGTGCTA,-0.756 z-score
GACGGTGTCCTTTCCCTGACGTGCTAG,0.907 z-score
GTCGGTATCCTACTGCTGACGTGCTAG,1.3 z-score
TAAGGACTGGGTTTCGGTTAGTGCTAG,3.89 z-score
GTCGATATCAGTATCGAGACGTGCTAG,0.533 z-score
TTATAACTGGGGTTTCGATTAGTGCTA,3.07 z-score
TTAGAGTCCAGTTTCGATTAGTGCTAG,5.78 z-score
TTAGATATCAGTCTTGATTAGTGCTAG,-0.152 z-score
GAGGGTCTCCTACTGCTGACGTGCTAG,-0.137 z-score
TTAGGTATCGGTCTCGGTAAGTGCTAG,0.505 z-score
TTTGGTCTCCTTATCCTTTAGTGCTAG,1.66 z-score
GGGCAGGAAACGGAGGACACGTGCTAG,-1.09 z-score
TTAGGTATCGGGTTCCGGTTAGTGCTA,1.2 z-score
GAAGGACTGGGTATCGGGACGTGCTAG,-0.755 z-score
GACGAACTGGGATATCGAGACGTGCTA,-0.21 z-score
AAACAAATAAGCCTTACTTGGTGCTAG,-0.544 z-score
TCAGTTTCACTTTCCAAACTGTGCTAG,10.7 z-score

# Sample 2
# Target: RNA binding protein fox-1 homolog 2, RRM domain, GST-SBP tag (RBFOX2, Homo sapiens, UniProt O43251-10, residues 100-194)
# Method: RNA Bind-n-Seq
# Form: RNA
# Matrix: in vitro
# Tested at: 365 nM
# Notes: natural RNA segment, single round, ends assumed
# Baseline: no-protein control
# Direction: higher = stronger binding
# Target sequence (chain): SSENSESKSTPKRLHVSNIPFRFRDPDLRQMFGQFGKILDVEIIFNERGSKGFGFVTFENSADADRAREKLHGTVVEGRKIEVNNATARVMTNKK
Oligonucleotide,RBNS enrichment (R)
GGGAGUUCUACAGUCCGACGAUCUAGGAAAAGUUAUUGUGAUAAAAUAGGAACAGCUGAAAGAUUGAUUAAUGAACUAUUGUUAAUUCUUCCUAUUUUAAUGAAUGACAUUGAACUGAAUUUUUUGUCUGUUAUGGAAUUCUCGGGUGCCAA,0.643
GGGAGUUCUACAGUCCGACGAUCCUUAAGGUCAGAACUUUUACAGACAACAAACAACCCUAGGGUUUCUUUUUCCAGUUUACACAGACCGGUCCCCACAGUGCAGAAUCCAUUUCUCUUUCGUCUCAACAGUAUGGAAUUCUCGGGUGCCAA,0.656
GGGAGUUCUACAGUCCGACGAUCAUCAACAGGACUACACACUUGUAUAUACAUUCUUGAGAACACUGCAAUGUGAAAAUCACGUUUGCUAUUUAUAAACUUGUCCUUAGAUUAAUGUGUCUGGACAGAUUGUGUGGAAUUCUCGGGUGCCAA,0.374
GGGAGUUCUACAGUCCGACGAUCACACUACCCGAGAUGUCCAGACGUGCUUGGUAGGAGGCUACUCCCUAGGUGCUGCCUUUCUAAGUUCUGACGAGGAGCAGCCCUCAGUGGCUUGUGUACAGAUUGCUCUAUGGAAUUCUCGGGUGCCAA,0.568
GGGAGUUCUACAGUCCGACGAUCGGAUCCUGUUUCCCACCUCCUUCUCCUCCCCUGUACUCCCCAGUGCCUUCCUUGUUCUGGUGGAGCUGGGGUUUCUCUCCUCCCCAGUCCCACAACACUGCCAAAAAUCUUGGAAUUCUCGGGUGCCAA,0.927
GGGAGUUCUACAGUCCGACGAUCUAUUUUUAAUAUGUAAAUUCUCUCAAAAGGGUCAGGCACCUAGUUAUUAUUUUUUAAUGAUUAUGUGAAAGUUGAAUAUAAUAUACCACUAAAAGUGACAGUUGAAAGUGUGGAAUUCUCGGGUGCCAA,0.429
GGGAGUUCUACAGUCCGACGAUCCAGCUCUUAGGAAUAGAAAGGAGGACUGCUGACUGUCUGGCGCUGUAUAAAAAUGUGUAUACCAAUUUGGGAAUAGGGGAACCCAGUCAUGGAUGGAUAAUAAGCCAAGUUGGAAUUCUCGGGUGCCAA,0.303
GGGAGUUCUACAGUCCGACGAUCGGGCAGGGCCCAUCCUAAGCAGCUUCCAAGUCCCACAAAGGUGGCUUGUGGGAGGAUUUGGAAGGAGCUGCAUUGUGGGCGGGGAGUGUGUGGGUUGGGUUCGUACCAGCUGGAAUUCUCGGGUGCCAA,0.801
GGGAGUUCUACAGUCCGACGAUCAAUAUUAAGGUCUUGCCAAGCUUCUGAUGAUUCACACCUGUACUACUGAUUAUUAAGCAGGACAGACUGAGCUUUCUGUUGCAAAUACCUUGGAGGAGAAAGUAAUUUCUUGGAAUUCUCGGGUGCCAA,0.273

# Sample 3
# Target: Hepatocyte nuclear factor 3-alpha (Foxa1, Mus musculus, UniProt P35582, residues 1-468, full length assumed)
# Method: EMSA with sequencing
# Form: double-stranded DNA, one strand shown
# Matrix: in vitro
# Tested at: 10 and 20 nM
# Notes: whole designed probe, mean of two concentrations, ends assumed
# Baseline: negative control set to 0
# Direction: higher = stronger binding
# Residues (chain): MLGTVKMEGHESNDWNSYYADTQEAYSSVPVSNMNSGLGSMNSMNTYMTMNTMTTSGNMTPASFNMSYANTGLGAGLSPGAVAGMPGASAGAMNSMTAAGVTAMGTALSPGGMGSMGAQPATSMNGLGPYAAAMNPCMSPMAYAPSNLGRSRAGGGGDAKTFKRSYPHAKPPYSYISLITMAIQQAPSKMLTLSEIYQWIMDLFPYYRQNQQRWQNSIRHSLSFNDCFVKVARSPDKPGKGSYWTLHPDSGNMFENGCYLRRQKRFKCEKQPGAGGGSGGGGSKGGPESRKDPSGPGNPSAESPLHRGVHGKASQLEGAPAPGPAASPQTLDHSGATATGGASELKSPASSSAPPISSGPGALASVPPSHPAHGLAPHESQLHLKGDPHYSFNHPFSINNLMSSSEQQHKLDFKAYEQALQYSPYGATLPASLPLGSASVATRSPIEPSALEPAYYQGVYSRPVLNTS
Oligonucleotide,normalised bound fraction
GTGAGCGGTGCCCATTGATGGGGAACAGGTGAATTGGCTGCTTCCATCCTGGCTTGGAACTTCAGACATAGAAGCCTTGGGACTTTCTCTGACTCATGCCAGGACTTTCTCCAGATGCTTGTTTGCTGAATCTCTGTGGATCACGTGACCTTAGCCAGGGATGTTGGTGAAACTGTGTGTTGGTCTAGGTACCTAGCCCATGCTAGGTGCTCATCGAATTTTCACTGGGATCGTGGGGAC,0.0607 ratio
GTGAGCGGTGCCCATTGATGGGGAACCTCATTCCTTGCTTCCGCCAATAATCTGACTAGTAAAGAAGTCACTGCATGCCACAAATTGTCAGTGCTGACTTCCTCAACAAGGAAGTATAAGTAAATAAATATTAATATAGAGTGACTCAGTATGCAAATTCCATCTTGAGAATACCAACTCCTGATGCCAACTGATTGTCAGTCATGGCTACAACAGGAGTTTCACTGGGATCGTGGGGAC,0.416 ratio
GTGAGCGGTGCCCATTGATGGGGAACATCTTCCCCCTCTTCCTTGCCCCACCAGCTCACCTTCCCGGGTTATTTGCACAAAGGAAAATAAATAAAGCCGGCATTCGTTAACGCAGTTCACGCGCATACTGCTGTTTGCTCTGGATCTAACATGGTCCTTTGGCGACGCCAGGCTCCGGGAGAGCAAAGCACCGTGTCAGGGCCATGATCCGGGGTGGCCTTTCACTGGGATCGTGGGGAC,0.377 ratio
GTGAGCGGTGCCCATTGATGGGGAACCTAGCTCCAGTCTTAGCATGGCAATTTCTTCCCGCAACGTACTATTTTCATGCAAGACGTCTTTTTCTTTCTTACAACTAAGAGAAAGCTAAGTAAACAAAGAGAACTTTTAGTTAGCACTCAATAGATTGACATATCATGATTTCTTCTGAAATTCAAAAATAACATGTATTTGTATAATGAAAGAATCCCCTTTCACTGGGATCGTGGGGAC,0.504 ratio
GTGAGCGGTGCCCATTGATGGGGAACATCTTCCCCCTCTTCCTTGCCCCACCAGCTCACCTACGGGGGTTATTTGCACAAAGGAAAATAAATAAAGCCGGCATTCGTTAACCCTCTTCTGGCGCAAACTGCTGTTTGCTCTGGATGAATCATGGTCCTTTGGCGAGGCGTGGCTCCGGGAGAGCAAAGCACCGTGTCAGGGCCATGATCCGGGCTCGCCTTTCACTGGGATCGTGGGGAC,0.38 ratio
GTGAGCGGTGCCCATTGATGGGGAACAGAACTTGGGTTGCCACAAAGAGATCTGAACTTGTTTTAACTTGTTAAGTCAGTTTTAGAAATACAAAGGTTTAAAGCAGTTTGATGGCTATGTAAATAAGGAAGTTTGCAAAGAACCTGGGTCTACCTCTGGCTATTCAGCAGCTTGGCAAGAGATGACCCGAGTTCTCAGAGTCCCCATCTTTGCATCTGTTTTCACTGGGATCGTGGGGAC,0.415 ratio

# Sample 4
# Target: Prothrombin, mature alpha-thrombin (F2, Homo sapiens, UniProt P00734)
# Method: aptamer microarray, sandwich
# Form: DNA with 2'F-ANA
# Matrix: in vitro
# Tested at: 200 nM
# Notes: whole 15-mer aptamer, many near background
# With: Cy3 exosite-II aptamer, 400 nM
# Direction: higher = stronger binding
# Oligonucleotide: GGTTGGTGTGGTTGG
Modification,mean fluorescence intensity [a.u.]
2'F-ANA at 5 7 13 14 15,80.8
2'F-ANA at 1 3 4 7 8 15,293
2'F-ANA at 1 2 3 7 10 11 14,46.8
2'F-ANA at 1 2 3 7 8 9 10 11 12 13,80.1
2'F-ANA at 1 6 7 12 14,103
2'F-ANA at 3 7 9 10 13 14 15,440
2'F-ANA at 3 7 8 11 12 15,1210
2'F-ANA at 1 3 5 8 10 11 12 13 14 15,47.7
2'F-ANA at 2 3 4 5 6 7 10 13 15,49.6
2'F-ANA at 1 2 5 6 8 11 12 13 14 15,50.4
2'F-ANA at 1 2 3 6 11 12 15,317
2'F-ANA at 3 6 8 10 11 12 13,511
2'F-ANA at 1 2 5 6 10 11 15,49.8
2'F-ANA at 1 3 4 7 9 11 15,169
2'F-ANA at 2 3 4 5 6 8 9 10 11,58
2'F-ANA at 2 6 8 9 11 12 13 15,407
2'F-ANA at 1 3 4 6 9 11 12 13 15,203
2'F-ANA at 1 5 7 8 11 12,101
2'F-ANA at 4 5 6 9 10 11 12 14 15,56.6
2'F-ANA at 2 5 7 8 13 14,123
2'F-ANA at 5 6 8 9 10 12 13 14 15,46.1
2'F-ANA at 4 5 6 7 8 9 13 15,49.1
2'F-ANA at 1 6 7 8 12 13,319
2'F-ANA at 1 2 4 5 8 9 11 12 14,51.8
2'F-ANA at 6 9 11 15,375

# Some of these lines once more (sample 2):
Oligonucleotide,RBNS enrichment (R)
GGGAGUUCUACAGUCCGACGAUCCAGCUCUUAGGAAUAGAAAGGAGGACUGCUGACUGUCUGGCGCUGUAUAAAAAUGUGUAUACCAAUUUGGGAAUAGGGGAACCCAGUCAUGGAUGGAUAAUAAGCCAAGUUGGAAUUCUCGGGUGCCAA,0.303
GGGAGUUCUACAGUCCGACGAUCGGGCAGGGCCCAUCCUAAGCAGCUUCCAAGUCCCACAAAGGUGGCUUGUGGGAGGAUUUGGAAGGAGCUGCAUUGUGGGCGGGGAGUGUGUGGGUUGGGUUCGUACCAGCUGGAAUUCUCGGGUGCCAA,0.801
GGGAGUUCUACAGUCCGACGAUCAAUAUUAAGGUCUUGCCAAGCUUCUGAUGAUUCACACCUGUACUACUGAUUAUUAAGCAGGACAGACUGAGCUUUCUGUUGCAAAUACCUUGGAGGAGAAAGUAAUUUCUUGGAAUUCUCGGGUGCCAA,0.273
